Measured values of several laboratories.
Protocols differ between the studies behind these lines. Values joined by “and” are separate records of one study, mostly repeats; a detail may differ. Numbers after ± are the reported error.
Sequence of UniProt P33261 (whole entry, looked up): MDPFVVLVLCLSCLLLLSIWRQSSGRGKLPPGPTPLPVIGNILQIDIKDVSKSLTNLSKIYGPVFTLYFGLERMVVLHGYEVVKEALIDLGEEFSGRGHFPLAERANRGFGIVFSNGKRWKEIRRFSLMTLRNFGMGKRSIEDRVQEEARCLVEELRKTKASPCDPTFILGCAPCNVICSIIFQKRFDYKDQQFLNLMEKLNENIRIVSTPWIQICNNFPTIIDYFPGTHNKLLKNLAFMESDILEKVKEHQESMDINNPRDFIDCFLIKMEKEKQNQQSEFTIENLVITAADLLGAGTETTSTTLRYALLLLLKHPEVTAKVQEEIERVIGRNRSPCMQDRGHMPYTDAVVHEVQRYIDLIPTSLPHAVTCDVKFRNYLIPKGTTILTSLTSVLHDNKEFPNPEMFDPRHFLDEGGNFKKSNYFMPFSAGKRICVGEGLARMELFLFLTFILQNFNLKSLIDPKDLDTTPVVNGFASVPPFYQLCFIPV

| Structure (SMILES) | tested on | test | system | conditions | scale | quantity | result |
| --- | --- | --- | --- | --- | --- | --- | --- |
| C=C[C@]1(C)C[C@@H](OC(=O)CSc2ccc(NC(=O)c3ccco3)cc2)[C@]2(C)[C@H](C)CC[C@]3(CCC(=O)[C@H]32)[C@@H](C)[C@@H]1O |  |  | Mycoplasma gallisepticum-infected chickens, plasma | intramuscular, 80 mg/kg, 0.083 h |  | plasma concentration | 5210 ng/mL and 4870 ng/mL and 6540 ng/mL and 5060 ng/mL and 5950 ng/mL and 11900 ng/mL and 7290 ng/mL |
| CCn1c(=O)c(-c2cc(NC(=O)Nc3ccccc3)c(F)cc2Br)cc2cnc(N)cc21 |  |  | human plasma | 150 ng/mL, -20 °C, 3 cycles, low QC |  | freeze-thaw stability accuracy | -10.5% |
| CNS(=O)(=O)Nc1nccc(Cc2c(C)c3ccc(Oc4ncccc4F)cc3oc2=O)c1F | UACC-2087 | cell viability, CellTiter-Glo |  | 7 days |  | IC50 | > 1000 nM |
| CC(C)[C@H](NC(=O)[C@H](Cc1c[nH]c2ccccc12)NC(=O)[C@H](CCCNC(=N)N)NC(=O)[C@H](CCCNC(=N)N)NC(=O)[C@@H](NC(=O)[C@@H](NC(=O)[C@H](CCCNC(=N)N)NC(=O)[C@@H](NC(=O)[C@@H](NC(=O)[C@H](CCCNC(=N)N)NC(=O)[C@H](CCCNC(=N)N)NC(=O)[C@@H](NC(=O)[C@H](Cc1c[nH]c2ccccc12)NC(=O)[C@H](CCCNC(=N)N)NC(=O)[C@H](CCCNC(=N)N)NC(=O)[C@@H](NC(=O)[C@H](CCCNC(=N)N)NC(=O)[C@H](CCCNC(=N)N)NC(=O)[C@@H](NC(=O)[C@H](Cc1c[nH]c2ccccc12)NC(=O)[C@H](CCCNC(=N)N)NC(=O)[C@@H](N)CCCNC(=N)N)C(C)C)C(C)C)C(C)C)C(C)C)C(C)C)C(C)C)C(C)C)C(=O)N[C@@H](CCCNC(=N)N)C(=O)N[C@@H](CCCNC(=N)N)C(=O)O |  |  | CD1 mouse, plasma | intravenous, 15 mg/kg, 24 h, [14C]-labelled compound |  | total CO2 | 23.3 mEq/L |
| O=C1CCC(N2Cc3cc(C(=O)O)c(F)cc3C2=O)C(=O)N1 (stereo not drawn) |  |  | cynomolgus monkey, male | oral, 0.3 mg/kg parent drug, 8 h |  | plasma concentration | 0.63 ± 0.45 ng/mL |
| COc1ccc2c(c1)CCn1c[n+]3c(c1-2)-c1ccc(OC)cc1CC3 |  |  | female NSG mice, blood | 6 mg/kg, day 7, 5 days per week |  | Lymphocytes | 11.1 ± 6.98% |
| Cc1ncsc1-c1ccc(C(C)NC(=O)C2CC(O)CN2C(=O)C(NC(=O)CCCCCCCCCCN2CCCC(Nc3ncc(Cl)c(Nc4ccccc4S(=O)(=O)C(C)C)n3)C2)C(C)(C)C)cc1 (stereo not drawn) | 22Rv1 | RNA-seq, refers to: ZNF324B mRNA |  | concentration not given | reference: DMSO | log2 fold change | -2.38 |
| COC1CN([C@H]2CC[C@H]([C@@]3(C)Oc4c(Cl)cc(C(=O)NCc5c(SC)cc(C)[nH]c5=O)c(C)c4O3)CC2)C1 |  | RNA-seq, refers to: TCF7L2 mouse homolog | mouse, HT-1376 xenograft, whole blood | dose not given | reference: vehicle | log2 fold change | 0.757 |
| CCC(C(=O)Nc1ccc(C(N)=O)c(F)c1)n1cc(OC)c(-c2cc(Cl)ccc2-n2cc(C(F)(F)F)nn2)cc1=O (stereo not drawn) |  |  | healthy male humans | 25 mg, ASD vs IR, fed |  | mild adverse events | 0% |
| C=CC(=O)Nc1cc(Nc2nccc(-c3c[nH]c4ccccc34)n2)c(OC)cc1N(C)CCN(C)C |  | storage stability | human plasma | 24 h, on ice, medium QC level |  | recovery | 78.5% |
| O=C(Nc1cnccc1-c1ccc([18F])cc1)c1ccnc(NC(=O)C2CC2)c1 |  | ex vivo biodistribution, gamma counting | GSK-3β overexpressing transgenic mouse, late stage, cecum | intravenous, 120 min post-injection, added: tariquidar 15 mg/kg iv, at least 2 h before tracer |  | mean SUV | 1.4 |
| CCCC[C@H](OC(C)=O)c1ccccc1C(=O)O |  |  | beagle dogs, both sexes, whole blood | intravenous, 0.5 mg/kg single dose |  | AUC(0-inf) | 409 ± 307 ng·h/mL |
| C=CC(=O)Nc1cccc(Cn2ncc3cnc(Nc4cnn(CCOC)c4)nc32)c1 | YANK3 human | binding, KINOMEscan |  | 100 nM | lower = stronger binding | percent of control | 100% |
| COCC1CN(C2CCN(c3cc(OC)c(Nc4ncc(Br)c(Nc5ccc6c(c5P(C)(C)=O)OCCO6)n4)cc3C)CC2)C1 |  |  | EGFR-mutant NSCLC patients, plasma | oral, 30 mg single dose, median |  | Tmax | 2.96 h |
| CCN(CC)CC#CCNc1ccnc2cc(Cl)ccc12 | Salmonella typhimurium | mini-Ames test | TA97a | 125.0 µg/well, with rat liver S9 |  | revertants per well | 14 |
| CN(O)C(=O)CCC(=O)NCCCN(CCCCN(CCCNC(=O)CCC(=O)N(C)O)C(=O)CCC(=O)N(C)O)C(=O)CCC(=O)N(C)O.[89Zr] |  |  | 0.9 % NaCl saline | 3 days, pH 4.5, 37 °C |  | intact compound | 99.9 ± 0.1% |
| CC[C@H](C)[C@H](NC(=O)C[C@H](NC(=O)CN1CCN2CCN(CC1)CC(=O)[O][Al]([18F])[O]C(=O)C2)C(=O)O)C(=O)N[C@H]1CCc2cccc3c2N(C1=O)[C@H](C(=O)NCc1cn[nH]n1)C3 | MC-38 tumour model |  | host not given, stomach | 30 min, tumour-bearing |  | tracer uptake | 0.78 %ID/g |
| CCCCN1C(=O)c2cccc3c(NCCCN4CCOCC4)ccc(c23)C1=O |  |  | Dioxane |  |  | molar extinction coefficient | 5200 M⁻¹ cm⁻¹ |
| O=C(NS(=O)(=O)c1cccs1)c1cc2ccccc2n1Cc1ccc(Br)c2ccccc12 |  |  | KM mouse, chronic hyperuricaemia model | dose not given, day 15 |  | body weight | 32.6 g and 35.2 g and 29.8 g and 31.2 g and 34.4 g and 37 g |
| CCCCN1C(=O)c2cccc3c(NCCCCN4CCOCC4)ccc(c23)C1=O |  |  | methanol |  |  | molar extinction coefficient | 7400 M⁻¹ cm⁻¹ |
| CC(C)OCCOCc1ccc(OCC(O)CN(N=O)C(C)C)cc1 (stereo not drawn) | Salmonella typhimurium | Ames test | TA98 | 1580 µg/plate, 30 % rat S9 | reference: solvent control | revertant fold increase | 0.9 fold |
| Nc1ncc(-c2cc(-c3cnn(CC(F)(F)F)c3)ncc2F)nc1C(=O)NC1CNCC(F)C1 (stereo not drawn) | YANK3 | KINOMEscan |  | 1 µM | reference: DMSO control | remaining binding | 79% |
| COc1cccc(OC)c1-c1cc(C(=O)NC2(C(=O)O)C3CC4CC(C3)CC2C4)nn1-c1ccc(C(=O)N(C)CCCN(C)C(=O)[C@H](CCCCNC(=O)[C@H](CC(C)C)NC(=O)C2OC2C(=O)O)NC(=O)CN2CCN(CC(=O)[O-])CCN(CC(=O)[O-])CCN(CC(=O)[O-])CC2)cc1C(C)C.[177Lu+3] (mixture of isomers) |  |  | mouse, HT-29 xenograft | 4 h post injection, biodistribution | reference: tumour over brain uptake | tumour-to-brain ratio | 105 |
| O=C1C2CC3CC1CC(C(=O)N1CCN(c4ccc([N+](=O)[O-])c5ncccc45)CC1)(C3)C2 | Salmonella typhimurium | Ames test | TA1535 | 0.13 µg/well, with S9 | reference: vehicle | revertant fold increase | 0.8 |
| CCCCN1C(=O)c2cccc3c(NCCCCCCN4CCOCC4)ccc(c23)C1=O |  |  | ethylene glycol |  |  | molar extinction coefficient | 13600 M⁻¹ cm⁻¹ |
| CC[C@H](C)[C@@H]1NC(=O)[C@H](Cc2ccc(O)cc2)NC(=O)CCCSC[C@@H](C(=O)N(CC(=O)N[C@@H](CC(C)C)C(=O)NCC(N)=O)Cc2ccc(F)cc2)NC(=O)[C@H](CC(N)=O)NC(=O)[C@H](CCC(N)=O)NC1=O |  |  | healthy human females, plasma | intranasal, 300 µg single dose |  | Cmax | 0.153 ng/mL |
| C=C(NC(=O)c1csc(-c2nc3c(cc2O)-c2nc(cs2)C(=O)NC(C(C)O)C(=O)NC(=C(C)OC)c2nc(cs2)C(=O)NC2c4nc(cs4)C(=O)NC(COC(=O)c4c5c6c(cccc6n4O)COC(=O)C(OC4CC(C)(O)C(N(C)C)C(C)O4)C2OC5)c2nc-3cs2)n1)C(N)=O (stereo not drawn) |  |  | Sprague-Dawley rat, both sexes, plasma | intravenous infusion, 18 mg/kg single dose |  | half-life | 6.19 ± 0.38 h |
| CNC(=O)C1CCCN(C(=O)C2CC3CCC2N3C(=O)[C@@H]2C[C@@H](O)CN2C(=O)NCc2cccc(Cl)c2F)C1 (mixture of isomers) | Cytochrome P450 2C19 (CYP2C19, Homo sapiens, UniProt P33261) | enzyme activity, inhibitor, time-dependent inhibition |  | 0.0686 µM, preincubated without NADPH | reference: negative control | remaining activity | 83.7% |
| CCCCN1C(=O)c2cccc3c(NCCN4CCOCC4)ccc(c23)C1=O |  |  | EtOAc |  |  | molar extinction coefficient | 6390 M⁻¹ cm⁻¹ |
| CC(C)C[C@H](NC(=O)[C@H](CCCN)NC(=O)CNC(=O)[C@@H](NC(=O)[C@H](C)NC(=O)[C@@H]1CSCSC[C@H](NC(=O)CC[C@H](N)C(=O)O)C(=O)N[C@@H](CC(N)=O)C(=O)N[C@@H]([C@@H](C)O)C(=O)N[C@@H](C)C(=O)N[C@@H]([C@@H](C)O)C(=O)N1)[C@@H](C)O)C(=O)N[C@@H](C)C(=O)N[C@@H](CCC(=O)O)C(=O)N[C@@](C)(Cc1ccccc1)C(=O)N[C@@H](CC(C)C)C(=O)N[C@H](C(=O)N[C@@H](CCCNC(=N)N)C(=O)N[C@@H](CO)C(=O)N[C@@H](CO)C(=O)N[C@@H](CC(N)=O)C(=O)N(C)[C@@H](CC(N)=O)C(=O)N[C@@H](Cc1ccccc1)C(=O)NCC(=O)N1CCC[C@H]1C(=O)N[C@@H](CCCCNC(=O)CC[C@H](NC(=O)CC[C@H](NC(=O)CCCCCCCCCCCCCCCCCCC(=O)O)C(=O)O)C(=O)O)C(=O)N[C@@H](CC(C)C)C(=O)N1CCC[C@H]1C(=O)N1CCC[C@H]1C(=O)N[C@H](C(=O)N[C@@H](CCC(=O)O)C(=O)N[C@H](C(=O)NCC(=O)N[C@@H](CO)C(=O)N[C@@H](CC(N)=O)C(=O)N[C@H](C(=O)N[C@@H](Cc1ccc(O)cc1)C(N)=O)[C@@H](C)O)C(C)C)[C@@H](C)O)C(C)C |  |  | healthy human, plasma | subcutaneous, 0.12 mg single dose, geometric LS mean |  | AUC(0-tlast) | 5810 ng·h/mL |
